{"data": "Assay results collected from several papers", "note": "Parts stem from different laboratories: compare values within a part only."}
{"data": "Sample 1", "target": "RNA binding protein fox-1 homolog 2, RRM domain, GST-SBP tag (RBFOX2, Homo sapiens, UniProt O43251-10, residues 100-194)", "method": "RNA Bind-n-Seq", "form": "RNA", "medium": "in vitro", "tested at": "365 nM", "notes": "natural RNA segment, single round, ends assumed", "relative to": "no-protein control", "direction": "higher = stronger binding", "shared flanks, not repeated": "GGGAGUUCUACAGUCCGACGAUC … UGGAAUUCUCGGGUGCCAA", "Target sequence (chain)": "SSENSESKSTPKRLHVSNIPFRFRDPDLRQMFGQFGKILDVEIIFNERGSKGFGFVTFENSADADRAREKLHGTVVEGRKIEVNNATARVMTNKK"}
{"Strand": "ACGAGCUCAAGCUGAAGUCAGAUGAGGACGAGGAGCGGGUCCACGAGGAGCUCUGAGGGGCAGGGAGCCUGGCCAGGCCUGAGACACAGAGGCCCACUGCGAGGGGGACA", "RBNS enrichment (R)": 0.685}
{"Strand": "UGCCCUCUUCCCUCUUUACACAUCAGGUGUCUCUGGCACAGGACUUGGCACUAAGCUCCAUGCUGAGACACCAGGCUAUGUGGGCCCCCACCUUGUUUCCCAGCCUGCAC", "RBNS enrichment (R)": 0.488}
{"Strand": "GAAAUAGAUAAGUGAAAGCUGAGUGUUUCUUUGAUAGGUUCCCCUGUACUAUAGGAGUGAUAAUUGCAGCUAUUGCAAUAGUAGUAAUUGUUAAAUGGAUACUAAUGAAU", "RBNS enrichment (R)": 0.428}
{"Strand": "UCUCCCAUCCUAAGCUGUUCAUUUUAAGAUGUGGCAGAGUAAAGUGGUUUUUCCUAACUUACUUGCUAUCAACAUACCACUGGAAAAAAUCUCUGAGGUAUCAAAGAAUU", "RBNS enrichment (R)": 0.278}
{"Strand": "AACACCUUAACAGUCACCACUGUGCUCAACCAGACAGAUAGUGAAACAGCUUUCUGGGUAAUUCACCAAUUUCCUUUAAAACAUAAGCUACCUGAAUGGAGAAUACAUCU", "RBNS enrichment (R)": 0.198}
{"Strand": "UAACCUUUUGGGGCUGUCAGUUUUCCACUAGGAUUAAGAUUUUGGCCGGGCGCGGUGGCUCACGCCUGCAAUCCCAACACAUUGGGGGGUCGAGGCGGACGGAUCACUUU", "RBNS enrichment (R)": 0.362}
{"Strand": "AACUUCCCCUCAAAAAGGAAUCAACCCCAGGAAGUAAUUAUUUACAACGAUUUUCCCAAAUUUUGUACAAUCUGUCCUGGAAAGCAAACCCCUUUUAAAAUCUAAUGUCU", "RBNS enrichment (R)": 0.287}
{"Strand": "AGUUACAUAAUUUUAUGGACUAUAGAGAUGGCGUCCCACUGAUGUGAGAAACAUCACAACAGCGAGGAAAGCACUGUGAGUAUAUCAGAAUGAAAACAUCCCUGCUUCCC", "RBNS enrichment (R)": 0.269}
{"data": "Sample 2", "target": "RING finger protein unkempt homolog, zinc fingers 1-6, GST-SBP tag (UNK, Homo sapiens, UniProt Q9C0B0, residues 30-357)", "method": "RNA Bind-n-Seq", "form": "RNA", "medium": "in vitro", "tested at": "not given", "notes": "RNA with constant flanks, human and mouse sites, ends assumed", "relative to": "input RNA pool", "direction": "higher = stronger binding", "shared flanks, not repeated": "GGGAGUUCUACAGUCCGACGAUC … CAACAGAGGAUUGAGCAUCA", "Construct (chain)": "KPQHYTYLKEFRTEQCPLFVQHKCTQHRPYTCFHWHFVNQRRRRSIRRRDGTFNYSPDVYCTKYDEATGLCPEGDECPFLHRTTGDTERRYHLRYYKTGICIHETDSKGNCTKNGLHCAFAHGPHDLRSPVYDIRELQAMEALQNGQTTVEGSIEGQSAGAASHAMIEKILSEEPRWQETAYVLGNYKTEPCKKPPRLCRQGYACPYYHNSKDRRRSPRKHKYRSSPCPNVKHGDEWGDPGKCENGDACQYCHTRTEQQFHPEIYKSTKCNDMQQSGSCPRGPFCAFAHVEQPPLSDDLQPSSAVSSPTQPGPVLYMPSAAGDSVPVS"}
{"Strand": "UACUAGAUAUUAAAAACUACAUAUAGUUAAUAUAAUUUUAUAAUUUUUGUAAUUAAAUGUGCUCCUGUAAUUGUGAUAUUUUGUUUUCUAAGUAAUUAAGCCUUAAUUUUUCCCCUAUGU", "bound/input enrichment": "74.3 ratio"}
{"Strand": "CACACUGCUGCUAUGGAUAUGCUGGGAGGACCUGGUAUCGAAAGCCAGUGUAGAAAAGUUGAUAUCAUUGCAGAUGCAGCAUAUUCCAUUUUCCAAAAGCCAAAAAGUUUUACUGGCAAC", "bound/input enrichment": "0.155 ratio"}
{"Strand": "GGUGGGACAGAAAAGACAUUGCAGUAUGAAGGAAGGCUUUGGUUUGCUCAAAGUGCCAGGUGUAGGGAUGAACCUCUGACGGGCUUUCUGCCCAAGAGAUGAGAUGAGAGCCUCCUCACC", "bound/input enrichment": "0.345 ratio"}
{"Strand": "AAAUCAACGAGUACAAUUACUUUAGGAGAAAAGCUUGCUUCAGGGUCCUUAGAGAAAGUCACUGGGGCCUGCCAAGCUGCCACCUAAAGACAAGAGUGAGAGGGCUGAGUUCUUCCAGGU", "bound/input enrichment": "0.139 ratio"}
{"Strand": "AAGAGGCACAGUUGGUUCAAGGCAAGUGGUACCAUCAAGAAGUUCCGAGCUGGCCUCAGCAUCUUUUCACCCAUCCCCAAGUCUCCCAGUUUCCCUAUCAUACAGGACUCCAUGCUGAAA", "bound/input enrichment": "0.258 ratio"}
{"Strand": "UCUCUUCCUAUGCCAGUACCAUACUGUCUUAAUUACUGUAGCCCUAGAGUAAGUUUUGAAUUUAGGAUGUGUUAGUUCUCUAGCUUUGUUCUACAUCAAGAUAAUUUUACCUGUUCUGGG", "bound/input enrichment": "24.2 ratio"}
{"Strand": "UGGAAUUCAAAUUUGAGUGGACAUCUCCUAAGUGCAUCUGAUGACCAUACUGUUUGUCUGUGGGAUAUAAACGCAGGACCAAAAGAAGGCAAAAUUGUGGAUGCUAAAGCCAUCUUUACU", "bound/input enrichment": "0.245 ratio"}
{"Strand": "AUCACCACCAAGGCUGAUAUCUGGGCACUGGGAUGUCUACUCUAUAAACUUUGUUUCUUCACUCUUCCUUUUGGUGAGAGUCAGGUUGCUAUCUGUGAUGGCAACUUCACCAUCCCAGAC", "bound/input enrichment": "0.0748 ratio"}
{"data": "Sample 3", "target": "Sal-like protein 4, full length isoform A (SALL4, Homo sapiens, UniProt Q9UJQ4, residues 1-1053)", "method": "universal PBM", "form": "double-stranded DNA, one strand shown", "medium": "in vitro", "tested at": "600 nM", "notes": "8-mer, flanks averaged, mean of replicates", "direction": "higher = stronger binding", "sequence of UniProt Q9UJQ4 (whole entry, looked up)": "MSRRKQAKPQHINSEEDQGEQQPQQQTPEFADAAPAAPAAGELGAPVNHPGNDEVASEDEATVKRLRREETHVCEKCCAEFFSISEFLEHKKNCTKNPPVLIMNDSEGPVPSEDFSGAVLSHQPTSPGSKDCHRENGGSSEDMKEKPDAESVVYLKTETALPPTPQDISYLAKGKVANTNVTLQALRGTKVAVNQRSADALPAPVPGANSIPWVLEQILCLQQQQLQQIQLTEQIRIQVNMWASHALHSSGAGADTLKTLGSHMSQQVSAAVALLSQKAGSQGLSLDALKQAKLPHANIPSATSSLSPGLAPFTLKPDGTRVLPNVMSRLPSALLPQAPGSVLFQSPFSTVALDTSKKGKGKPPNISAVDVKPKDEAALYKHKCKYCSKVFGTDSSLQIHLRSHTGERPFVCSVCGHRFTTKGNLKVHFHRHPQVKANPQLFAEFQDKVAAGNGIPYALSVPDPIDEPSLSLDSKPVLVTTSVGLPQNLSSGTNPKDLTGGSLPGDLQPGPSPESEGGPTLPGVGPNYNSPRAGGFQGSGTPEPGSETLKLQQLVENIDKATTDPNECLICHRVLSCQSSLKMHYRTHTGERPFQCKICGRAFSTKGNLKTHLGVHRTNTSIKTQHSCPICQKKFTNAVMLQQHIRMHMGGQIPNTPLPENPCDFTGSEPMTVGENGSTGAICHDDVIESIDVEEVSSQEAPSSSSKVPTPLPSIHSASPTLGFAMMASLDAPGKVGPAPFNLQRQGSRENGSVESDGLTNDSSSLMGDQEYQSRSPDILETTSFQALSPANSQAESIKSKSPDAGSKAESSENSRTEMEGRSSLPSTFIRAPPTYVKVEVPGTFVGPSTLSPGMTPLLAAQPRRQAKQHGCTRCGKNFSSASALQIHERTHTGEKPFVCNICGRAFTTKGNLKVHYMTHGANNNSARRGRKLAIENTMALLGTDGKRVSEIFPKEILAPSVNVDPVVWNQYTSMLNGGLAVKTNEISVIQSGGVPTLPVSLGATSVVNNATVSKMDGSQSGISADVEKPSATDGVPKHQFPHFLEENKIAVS"}
{"Strand": "CTATTCAC", "E-score": 0.0714}
{"Strand": "GCGAATAC", "E-score": 0.0421}
{"Strand": "CAACGACC", "E-score": -0.211}
{"Strand": "ACCCACCA", "E-score": -0.151}
{"Strand": "ACCCTAAG", "E-score": -0.177}
{"Strand": "CAGCACTG", "E-score": -0.237}
{"Strand": "CCTTGTAG", "E-score": -0.0364}
{"Strand": "ATGCCAGA", "E-score": 0.074}
{"Strand": "ACCCCTTC", "E-score": -0.121}
{"data": "Mixed results"}
{"Substance": "PhoQ, residues 284 288 289 292 302 303 SNSSNI", "target": "PhoP, residues 12 14 15 18 19 QQAYL (Escherichia coli, UniProt P23836)", "test": "Sort-seq, measured: YFP reporter", "test system": "E. coli", "conditions": "PhoQ-PhoP variant library, together with: 10 µM Mg2+", "scale": "relative to: high Mg2+ state, higher = stronger signaling", "endpoint": "fold induction", "result": 1.33}
